Assay results collected from several papers.
Compare with care: the assays were run in different laboratories.
PIK3CB: Phosphatidylinositol 4,5-bisphosphate 3-kinase catalytic subunit beta isoform (PIK3CB, Homo sapiens, UniProt P42338)
PIK3CB with p85 alpha: Phosphatidylinositol 4,5-bisphosphate 3-kinase catalytic subunit beta isoform, with p85 alpha (PIK3CB, Homo sapiens, UniProt P42338)

SMILES	target	test	system	setting	how to read	measurement	result
COc1ccc(F)cc1C(=O)NCc1ccc(-c2nn([C@@H](C)C(F)(F)F)c(N)c2C(N)=O)cc1	PIK3CB	target engagement, competitive chemoproteomics	human PBMCs	10 µM	–	inhibition	9.1%
COc1cc(-c2cncc3c2CN(C)Cc2cc(N4CCNCC4)ccc2-3)cc(OC)c1OC	PIK3CB with p85 alpha	kinase activity	–	1 µM, p110b/p85a)(h human, with: ATP 10 µM	relative to: DMSO	remaining activity	94%
O=C(NC1CCC1)c1ccc2nc(-c3cccc(NS(=O)(=O)NCCN4CCCCC4)c3)cn2c1	PIK3CB	enzyme activity	–	10 µM	–	remaining activity	77%
CN1CC(Oc2cnc(C#N)cc2-c2ccn3nc(NC(=O)C4CC4)cc3c2)C1	PIK3CB with p85 alpha	inhibitor, KinaseProfiler panel	–	1 µM	–	inhibition	-2%
Cc1nc(NC(=O)N2CCC[C@H]2C(N)=O)sc1-c1ccnc(C(C)(C)C(F)(F)F)c1	PIK3CB	KINOMEscan	–	10 µM	–	remaining binding	2.9%
COc1cc(F)ccc1-c1ncnc(Nc2cccc(C[S@](C)(=N)=O)c2)n1	PIK3CB with p85 alpha	kinase activity	–	10 µM, with: ATP 10 µM	–	remaining activity	99%
CS(=O)(=O)Nc1cccc(-c2csc(NC(=O)CSc3nc4nccnc4c(=O)n3CCc3ccccc3)n2)c1	Phosphatidylinositol 4,5-bisphosphate 3-kinase catalytic subunit beta isoform, with p85 beta (PIK3CB, Homo sapiens, UniProt P42338)	kinase activity, inhibitor	–	10 µM, with: PIK3R2 complex	–	inhibition	-3%
C=CC(=O)Nc1cc(Nc2nccc(Nc3cc(Cl)c(F)cc3C(C)(C)O)n2)c(OC)cc1N1CC[C@@H](N(C)C)C1	PIK3CB with p85 alpha	kinase activity, inhibitor	–	1 µM	–	inhibition	-1%
Cc1ccc(C(=O)NCc2ccsc2)cc1C#Cc1cn(C(C)C)c2ncnc(N)c12	PIK3CB with p85 alpha	kinase activity	–	1 µM, with: ATP at Km	–	remaining activity	100%
O=C(CSc1nc2nccnc2c(=O)n1CCc1ccccc1)Nc1nccs1	PIK3CB with p85 alpha	kinase activity, inhibitor	–	10 µM, with: PIK3R1 complex	–	inhibition	8%
CC[C@@H]1[C@H](F)C(=O)N[C@@H]1COc1nccc2cc(C(N)=O)c(OC)cc12	PIK3CB	ATP-site probe binding, ActivX profiling	THP-1 cell lysate	0.04 mM	–	inhibition	1.2%
Cc1ccc(NC(=O)c2ccc(C)c(C(F)(F)F)c2)cc1C#Cc1nn(C2CCC(O)CC2)c2ncnc(N)c12 (stereo not drawn)	PIK3CB with p85 alpha	–	–	10 µM, with: 10 µM ATP	–	remaining activity	78%

A few entries again:
SMILES	target	test	system	setting	how to read	measurement	result
Cc1nc(NC(=O)N2CCC[C@H]2C(N)=O)sc1-c1ccnc(C(C)(C)C(F)(F)F)c1	PIK3CB	KINOMEscan	–	10 µM	–	remaining binding	2.9%
COc1cc(F)ccc1-c1ncnc(Nc2cccc(C[S@](C)(=N)=O)c2)n1	PIK3CB with p85 alpha	kinase activity	–	10 µM, with: ATP 10 µM	–	remaining activity	99%
